Published values collected from several papers.
± gives the spread as reported.
UniProt Q00535, sequence (whole entry, looked up): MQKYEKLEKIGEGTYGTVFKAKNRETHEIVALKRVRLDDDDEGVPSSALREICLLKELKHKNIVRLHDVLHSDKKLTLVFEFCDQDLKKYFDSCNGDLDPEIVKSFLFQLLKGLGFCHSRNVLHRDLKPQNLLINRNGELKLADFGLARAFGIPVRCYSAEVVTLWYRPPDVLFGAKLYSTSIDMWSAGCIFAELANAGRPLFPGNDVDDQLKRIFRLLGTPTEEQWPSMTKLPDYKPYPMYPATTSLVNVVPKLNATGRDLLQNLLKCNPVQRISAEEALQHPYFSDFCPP
UniProt Q6ZN16, sequence (whole entry, looked up): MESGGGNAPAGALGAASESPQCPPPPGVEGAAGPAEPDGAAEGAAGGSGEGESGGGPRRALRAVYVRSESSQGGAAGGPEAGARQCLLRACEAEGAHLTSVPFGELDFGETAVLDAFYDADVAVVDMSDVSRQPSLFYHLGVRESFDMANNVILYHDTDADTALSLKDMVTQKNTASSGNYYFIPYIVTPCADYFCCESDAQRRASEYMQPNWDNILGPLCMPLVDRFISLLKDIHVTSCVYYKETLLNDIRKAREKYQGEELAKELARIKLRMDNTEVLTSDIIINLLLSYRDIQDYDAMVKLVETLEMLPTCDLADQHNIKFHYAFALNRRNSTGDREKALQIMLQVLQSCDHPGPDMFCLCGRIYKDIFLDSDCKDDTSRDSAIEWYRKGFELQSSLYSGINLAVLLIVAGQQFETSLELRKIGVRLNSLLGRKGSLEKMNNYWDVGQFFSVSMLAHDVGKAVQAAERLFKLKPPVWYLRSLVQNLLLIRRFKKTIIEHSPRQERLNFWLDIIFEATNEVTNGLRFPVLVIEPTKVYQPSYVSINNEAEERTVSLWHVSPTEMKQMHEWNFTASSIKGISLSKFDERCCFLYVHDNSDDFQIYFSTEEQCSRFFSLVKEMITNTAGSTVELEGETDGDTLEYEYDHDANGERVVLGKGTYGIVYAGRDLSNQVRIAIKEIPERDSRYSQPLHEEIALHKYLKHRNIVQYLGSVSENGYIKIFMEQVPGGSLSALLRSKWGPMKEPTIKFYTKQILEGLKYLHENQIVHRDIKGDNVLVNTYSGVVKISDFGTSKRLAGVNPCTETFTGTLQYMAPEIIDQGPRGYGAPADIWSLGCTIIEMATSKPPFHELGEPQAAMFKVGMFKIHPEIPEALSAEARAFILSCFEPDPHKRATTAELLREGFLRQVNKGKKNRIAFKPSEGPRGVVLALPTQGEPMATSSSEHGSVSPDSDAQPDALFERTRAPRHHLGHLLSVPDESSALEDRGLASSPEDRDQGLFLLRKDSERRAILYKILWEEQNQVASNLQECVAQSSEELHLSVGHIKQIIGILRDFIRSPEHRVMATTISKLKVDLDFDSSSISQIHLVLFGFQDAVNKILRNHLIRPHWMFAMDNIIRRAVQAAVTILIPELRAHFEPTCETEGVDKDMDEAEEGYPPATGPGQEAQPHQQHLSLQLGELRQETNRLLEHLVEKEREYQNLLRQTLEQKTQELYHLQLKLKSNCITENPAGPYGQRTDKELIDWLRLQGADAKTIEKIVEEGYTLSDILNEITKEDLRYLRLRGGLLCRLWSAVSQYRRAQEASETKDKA
UniProt Q16620, sequence (whole entry, looked up): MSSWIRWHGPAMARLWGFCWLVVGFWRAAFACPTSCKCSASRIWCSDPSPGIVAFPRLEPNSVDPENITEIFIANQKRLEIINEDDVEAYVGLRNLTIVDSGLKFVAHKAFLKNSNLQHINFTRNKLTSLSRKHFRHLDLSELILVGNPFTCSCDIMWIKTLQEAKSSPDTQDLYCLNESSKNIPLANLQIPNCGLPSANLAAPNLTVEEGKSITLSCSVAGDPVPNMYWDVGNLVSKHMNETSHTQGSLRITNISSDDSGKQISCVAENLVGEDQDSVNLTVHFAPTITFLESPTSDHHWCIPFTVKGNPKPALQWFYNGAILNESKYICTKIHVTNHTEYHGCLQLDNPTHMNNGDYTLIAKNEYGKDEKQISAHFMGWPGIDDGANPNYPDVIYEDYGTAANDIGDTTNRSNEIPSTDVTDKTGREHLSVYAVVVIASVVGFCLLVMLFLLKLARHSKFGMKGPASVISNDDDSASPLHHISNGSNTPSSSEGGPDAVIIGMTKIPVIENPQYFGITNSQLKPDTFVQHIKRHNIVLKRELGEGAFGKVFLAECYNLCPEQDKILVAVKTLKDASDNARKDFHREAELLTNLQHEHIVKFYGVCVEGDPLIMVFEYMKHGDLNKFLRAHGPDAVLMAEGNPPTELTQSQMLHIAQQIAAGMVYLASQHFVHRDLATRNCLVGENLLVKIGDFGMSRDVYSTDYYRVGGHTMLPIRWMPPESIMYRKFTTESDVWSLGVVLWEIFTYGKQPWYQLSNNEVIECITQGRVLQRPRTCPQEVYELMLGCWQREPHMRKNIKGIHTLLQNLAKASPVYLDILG
UniProt Q99572, sequence (whole entry, unmodified, looked up): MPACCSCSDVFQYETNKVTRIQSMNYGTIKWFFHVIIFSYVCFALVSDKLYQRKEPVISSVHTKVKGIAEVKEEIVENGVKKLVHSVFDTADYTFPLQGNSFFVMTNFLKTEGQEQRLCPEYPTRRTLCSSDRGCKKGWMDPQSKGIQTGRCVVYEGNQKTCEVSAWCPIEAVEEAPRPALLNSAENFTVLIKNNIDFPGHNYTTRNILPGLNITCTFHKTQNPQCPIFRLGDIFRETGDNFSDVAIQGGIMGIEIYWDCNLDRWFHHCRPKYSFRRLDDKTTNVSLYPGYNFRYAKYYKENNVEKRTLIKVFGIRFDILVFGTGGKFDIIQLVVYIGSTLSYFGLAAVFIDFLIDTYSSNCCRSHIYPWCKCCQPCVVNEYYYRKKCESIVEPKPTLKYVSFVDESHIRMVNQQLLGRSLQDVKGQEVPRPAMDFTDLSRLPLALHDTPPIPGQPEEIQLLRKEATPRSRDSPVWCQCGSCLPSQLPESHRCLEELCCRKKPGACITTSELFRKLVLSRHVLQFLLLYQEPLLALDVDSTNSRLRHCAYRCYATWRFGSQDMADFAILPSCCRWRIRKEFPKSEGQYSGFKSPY
UniProt O75676, sequence (whole entry, looked up): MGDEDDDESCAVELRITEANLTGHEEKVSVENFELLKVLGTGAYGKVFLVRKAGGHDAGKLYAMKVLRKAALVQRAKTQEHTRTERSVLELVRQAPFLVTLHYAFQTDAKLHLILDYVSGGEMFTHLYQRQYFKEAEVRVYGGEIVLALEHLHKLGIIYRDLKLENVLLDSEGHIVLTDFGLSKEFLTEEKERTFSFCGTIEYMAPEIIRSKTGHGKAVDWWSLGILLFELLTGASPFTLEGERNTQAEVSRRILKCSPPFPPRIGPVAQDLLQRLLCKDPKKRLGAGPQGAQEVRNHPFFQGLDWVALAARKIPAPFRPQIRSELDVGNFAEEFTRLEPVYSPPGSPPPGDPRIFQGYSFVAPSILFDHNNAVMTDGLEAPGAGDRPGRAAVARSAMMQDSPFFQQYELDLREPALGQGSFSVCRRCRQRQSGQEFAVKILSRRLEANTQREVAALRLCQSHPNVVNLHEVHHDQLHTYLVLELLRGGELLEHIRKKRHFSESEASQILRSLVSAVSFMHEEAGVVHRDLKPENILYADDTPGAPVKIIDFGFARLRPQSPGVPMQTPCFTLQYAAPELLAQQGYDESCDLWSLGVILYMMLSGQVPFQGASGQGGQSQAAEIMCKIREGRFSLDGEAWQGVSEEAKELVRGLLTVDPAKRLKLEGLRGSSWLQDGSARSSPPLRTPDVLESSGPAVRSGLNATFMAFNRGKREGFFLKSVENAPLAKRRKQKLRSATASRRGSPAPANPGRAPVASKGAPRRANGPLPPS
UniProt P49674, sequence (whole entry, looked up): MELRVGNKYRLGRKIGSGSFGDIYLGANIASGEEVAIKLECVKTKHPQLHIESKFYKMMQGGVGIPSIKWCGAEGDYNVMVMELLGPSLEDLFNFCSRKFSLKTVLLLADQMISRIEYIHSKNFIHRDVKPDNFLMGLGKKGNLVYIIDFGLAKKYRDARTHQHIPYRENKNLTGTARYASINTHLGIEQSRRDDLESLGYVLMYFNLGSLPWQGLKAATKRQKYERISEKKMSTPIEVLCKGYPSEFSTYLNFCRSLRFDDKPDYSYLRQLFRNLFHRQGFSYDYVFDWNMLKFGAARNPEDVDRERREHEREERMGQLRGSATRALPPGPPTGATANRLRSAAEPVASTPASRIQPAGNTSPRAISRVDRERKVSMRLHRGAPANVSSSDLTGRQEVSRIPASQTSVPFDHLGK
UniProt P46734, sequence (whole entry, looked up): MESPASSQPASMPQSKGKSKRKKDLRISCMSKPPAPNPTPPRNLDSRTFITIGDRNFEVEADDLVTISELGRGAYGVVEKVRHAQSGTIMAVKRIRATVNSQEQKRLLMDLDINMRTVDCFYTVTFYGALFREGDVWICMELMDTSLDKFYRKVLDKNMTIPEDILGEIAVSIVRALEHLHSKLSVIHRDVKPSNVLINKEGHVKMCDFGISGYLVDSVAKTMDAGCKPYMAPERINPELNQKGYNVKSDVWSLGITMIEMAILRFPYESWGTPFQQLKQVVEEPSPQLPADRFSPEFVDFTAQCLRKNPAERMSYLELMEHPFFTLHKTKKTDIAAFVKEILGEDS

Structure (SMILES) | target | assay | system | conditions | how to read | remaining activity
COc1cc(F)ccc1-c1ncnc(Nc2cccc(C[S@](C)(=N)=O)c2)n1 | Serine/threonine-protein kinase D2 (PRKD2, Homo sapiens, UniProt Q9BZL6) | kinase activity |  | 10 µM, added: 10 µM ATP |  | 102%
COc1ccc(F)cc1C(=O)NCc1ccc(-c2nn([C@@H](C)C(F)(F)F)c(N)c2C(N)=O)cc1 | Ribosomal protein S6 kinase alpha-4 (RPS6KA4, Homo sapiens, UniProt O75676) | kinase activity, inhibitor, HotSpot radiometric |  | 1000 nM, added: ATP at Km |  | 97.1 ± 1.6%
Cc1cc(Nc2cc(N3CCN(C)CC3)nc(Sc3ccc(NC(=O)C4CC4)cc3)n2)[nH]n1 | Homeodomain-interacting protein kinase 3 (HIPK3, Homo sapiens, UniProt Q9H422) | kinase activity, KinaseProfiler |  | 0.03 µM, species human | reference: control | 109%
CNc1ncc2c(/C=C/C(=O)N3CCC(OC)CC3)nn(Cc3cccc(C(F)(F)F)c3)c2n1 | Ephrin type-A receptor 2 (EPHA2, Homo sapiens, UniProt P29317) | kinase activity, inhibitor |  | 1 µM | reference: untreated control | 104%
O=C(O)c1ccc(Nc2ncc3c(n2)-c2ccc(Cl)cc2C(c2c(F)cccc2F)=NC3)cc1 | yeast CK1 | inhibitor, biochemical kinase |  | 1 µM |  | 115%
C=CC(=O)N1CCC[C@@H](n2nc(-c3ccc(Oc4ccccc4)cc3)c3c(N)ncnc32)C1 | Casein kinase I isoform epsilon (CSNK1E, Homo sapiens, UniProt P49674) | kinase activity, inhibitor, HotSpot radiometric |  | 100 nM, added: ATP 10 µM |  | 82.9 ± 2.2%
COc1cc(Nc2ncc3c(n2)-c2ccc(Cl)cc2C(c2c(F)cccc2OC)=NC3)ccc1C(=O)O | STK22B | kinase activity |  | 1 µM |  | 111%
COc1cc(-c2cncc3c2CN(C)Cc2cc(N4CCNCC4)ccc2-3)cc(OC)c1OC | Dual specificity mitogen-activated protein kinase kinase 3 (MAP2K3, Homo sapiens, UniProt P46734) | kinase activity |  | 1 µM, human enzyme, added: ATP 10 µM | reference: DMSO control | 93%
O=C(NC1CCC1)c1ccc2nc(-c3cccc(NS(=O)(=O)NCCN4CCCCC4)c3)cn2c1 | Serine/threonine-protein kinase ULK1 (ULK1, Homo sapiens, UniProt O75385) | enzyme activity |  | 10 µM |  | 85%
C=CC(=O)N1CCC[C@@H](n2nc(-c3ccc(Oc4ccccc4)cc3)c3c(N)ncnc32)C1 | BDNF/NT-3 growth factors receptor (NTRK2, Homo sapiens, UniProt Q16620) |  |  | 0.1 µM |  | 290%
C=CC[C@H]1c2ccc(OC)c(OC)c2CN2CCc3cc4c(cc3[C@@H]12)OCO4 | P2X purinoceptor 7 (P2RX7, Homo sapiens, UniProt Q99572) | ATP-evoked current, inhibitor, whole-cell patch clamp | HEK293 transfected | 10 µM |  | 69.4%
COc1cc(N2CCN(C)CC2)ccc1Nc1nc(N)n(C(=S)NCc2c(Cl)cccc2Cl)n1 | Mitogen-activated protein kinase kinase kinase 15 (MAP3K15, Homo sapiens, UniProt Q6ZN16) | enzyme activity |  | 10 µM | reference: control | 6%
C=CC(=O)N1CCC([C@@H]2CCNc3c(C(N)=O)c(-c4ccc(Oc5ccccc5)cc4)nn32)CC1 | Cyclin-dependent kinase 5, with p25 (CDK5, Homo sapiens, UniProt Q00535) | kinase activity, inhibitor, HotSpot radiometric |  | 100 nM, added: ATP 10 µM |  | 93.3 ± 0.9%

Excerpt of the above:
Structure (SMILES) | target | assay | system | conditions | how to read | remaining activity
C=CC(=O)N1CCC[C@@H](n2nc(-c3ccc(Oc4ccccc4)cc3)c3c(N)ncnc32)C1 | Casein kinase I isoform epsilon (CSNK1E, Homo sapiens, UniProt P49674) | kinase activity, inhibitor, HotSpot radiometric |  | 100 nM, added: ATP 10 µM |  | 82.9 ± 2.2%
O=C(NC1CCC1)c1ccc2nc(-c3cccc(NS(=O)(=O)NCCN4CCCCC4)c3)cn2c1 | Serine/threonine-protein kinase ULK1 (ULK1, Homo sapiens, UniProt O75385) | enzyme activity |  | 10 µM |  | 85%
